Experimental data of several laboratories.
Parts stem from different laboratories: compare values within a part only.

Sample 1 — method: RNA Bind-n-Seq; form: RNA; matrix: in vitro; concentration: 365 nM; reference: no-protein control; direction: higher = stronger binding
Target: RNA binding protein fox-1 homolog 2, RRM domain, GST-SBP tag (RBFOX2, Homo sapiens, UniProt O43251-10, residues 100-194)
Notes: natural RNA segment, single round, ends assumed
Target sequence (chain): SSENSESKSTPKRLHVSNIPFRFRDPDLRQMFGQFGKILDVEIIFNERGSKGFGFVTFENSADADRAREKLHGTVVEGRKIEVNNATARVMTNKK
Under “RBNS enrichment (R)”, `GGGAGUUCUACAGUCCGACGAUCAAAUUUCAGUAUUUUAGUAAUAUGCCAGCUGUUCUUAAUGUAUUUAUUAAAAUGUAUAACAAUGUGAUUUUUCAAUGGUAUUAGUUCAAAUUGACGUGGAUUCAUGCCACUGGAAUUCUCGGGUGCCAA` is recorded as 1.64.
Under “RBNS enrichment (R)”, `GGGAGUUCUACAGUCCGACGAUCAGUGUCCCAAAGAUAUCUUAGAUAAACUAUUUUGAAGUUCAGAUUUCAGAUGAGGCAACAUUUUCUUGAGAUAAUUACCCAAGUUUCAUCCAUGUUGAAUGGUACAAAAUUGGAAUUCUCGGGUGCCAA` is recorded as 0.353.
Under “RBNS enrichment (R)”, `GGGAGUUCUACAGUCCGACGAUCUAUUUAACGAUUGCCUGACAGUCGAGUGUUUCCAAUGUGGUCGUCCAGUUUCUAUGGCCUUGCUGUGGACUUUCCCCUCUUUGUCGGUAACCUUUCGCCUAUGGCUUACAUGGAAUUCUCGGGUGCCAA` is recorded as 0.378.
Under “RBNS enrichment (R)”, `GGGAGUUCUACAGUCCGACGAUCUAUUCUUCUGAGUGUCUAUGUUAACUUCCCUCUAUCCCGCUUAUAAAAAAAUUCUCCAACAAAAAUACUUGUUGACUUGAUGUUUUAUCACUUCUCUAAGUAAGGUUGAAUGGAAUUCUCGGGUGCCAA` is recorded as 0.252.
`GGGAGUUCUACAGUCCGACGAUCUAAGUAAAGAAAGACAAUUGGACCCUUAAGAAUUUAUGCAUUUGUAAAGUUGCUGUUGAUCCAAAUAUUUUCAAGCCAUGUAAUCCAUUGGUUUUGUGGGCAGUUUAAUAUGGAAUUCUCGGGUGCCAA`: “RBNS enrichment (R)” 1.36.
For `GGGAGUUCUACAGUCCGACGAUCGCUGACAUGGUCUUUCAAGAUUCUUAGUAGGUCUCUCAGAAGCCAGUUCAUCUGGCCUUAACUGAAUGGAUUCCCUAUUUAACCAGAAACUGUUGUCCUCCUGCUAAACAUGGAAUUCUCGGGUGCCAA`, “RBNS enrichment (R)” read 0.253.
`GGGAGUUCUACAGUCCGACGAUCUUGCUGUGUAGUCUUGGUGUGGAAAUUUGAAUUCUGCUUUUCUCUACUAAUCUGAAGUGCUCCGUGAUGUGUGUAUGUGUCUUUCUAACUUCUAAUAAACUCACUCCAACUGGAAUUCUCGGGUGCCAA`: “RBNS enrichment (R)” 1.47.
`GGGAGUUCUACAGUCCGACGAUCGUUGUUGCAUGUUUGAAAUGAGGUCUGUUUAAAGUGGCAAUCUCAGAUGCAGUUUGGAGAGUCAGAUCUUUCUCCUUGAAUAUCUUUCGAUAAACAACAAGGUGGUGUGAUGGAAUUCUCGGGUGCCAA`: “RBNS enrichment (R)” 9.16.
`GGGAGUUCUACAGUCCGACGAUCCAGUGGAUACUUAAGACUCAAAGAGCCACCACUACUUUAUUUUUUAUACACUUGGUCUUUCCAUGUAUAUACCGGCCUCUGUUUUUUUUUUUUCCAAUCUCUGGCUCUUCUGGAAUUCUCGGGUGCCAA`: “RBNS enrichment (R)” 0.873.
Under “RBNS enrichment (R)”, `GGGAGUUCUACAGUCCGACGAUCAUAUGCGGAGAGUAAAUGCAAAAAUGCUAAGAGUAAUGCAUCAUGUAUUGAAUAUUAAGUGUCACUGAAGCAAUGUUUGUGUUGACUAGAAACGUAAGAUGACUUGUGUAUGGAAUUCUCGGGUGCCAA` is recorded as 0.646.
`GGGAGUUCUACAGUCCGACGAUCCACACGCCGAGACUCUGCCGUACCCCUCUGUGGUUCAUAUUACUACUUCUGUUCCAUGGUGUGCAGGUCUGCUUCUUAAUUCAGUGUUAUGAUAUCUUCCAGUUUUUGCUUGGAAUUCUCGGGUGCCAA` — result for “RBNS enrichment (R)”: 0.742.

Sample 2 — method: protein binding microarray; form: double-stranded DNA, one strand shown; matrix: in vitro; concentration: not given; reference: not given; direction: higher = stronger binding
Target: Histone acetyltransferase KAT6A, winged helix 1, GST fusion (KAT6A, Homo sapiens, UniProt Q92794, residues 1-85)
Notes: 8-mer, flanks averaged, mean of 2 arrays, mostly near background
Construct (chain): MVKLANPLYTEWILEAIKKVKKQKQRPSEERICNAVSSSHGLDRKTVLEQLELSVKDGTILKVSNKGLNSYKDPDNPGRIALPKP
`CTGTGAAG` gave an E-score of -0.135.
`TGCTTACA` has an E-score of -0.0521.
`CGGGTAGA` gave an E-score of 0.142.
With `CAAATGTG` the E-score was -0.072.
With `GCAATAGA` the E-score was 0.00255.
`CTCCAAAG` gave an E-score of -0.215.
`CTGCAAAA` gave an E-score of -0.0796.
The E-score of `AGCGTGCA` is reported as 0.105.
`CACTGTAC` has an E-score of -0.077.
`ACCGCGAC` gave an E-score of 0.236.
With `CCCACTAA` the E-score was -0.126.

Sample 3 — method: universal PBM; form: double-stranded DNA, one strand shown; matrix: in vitro; concentration: not given; direction: higher = stronger binding
Target: Sal-like protein 4, full length isoform B (SALL4, Homo sapiens, UniProt Q9UJQ4-2, residues 1-616)
Notes: 8-mer, flanks averaged, mean of replicates
Target sequence (chain): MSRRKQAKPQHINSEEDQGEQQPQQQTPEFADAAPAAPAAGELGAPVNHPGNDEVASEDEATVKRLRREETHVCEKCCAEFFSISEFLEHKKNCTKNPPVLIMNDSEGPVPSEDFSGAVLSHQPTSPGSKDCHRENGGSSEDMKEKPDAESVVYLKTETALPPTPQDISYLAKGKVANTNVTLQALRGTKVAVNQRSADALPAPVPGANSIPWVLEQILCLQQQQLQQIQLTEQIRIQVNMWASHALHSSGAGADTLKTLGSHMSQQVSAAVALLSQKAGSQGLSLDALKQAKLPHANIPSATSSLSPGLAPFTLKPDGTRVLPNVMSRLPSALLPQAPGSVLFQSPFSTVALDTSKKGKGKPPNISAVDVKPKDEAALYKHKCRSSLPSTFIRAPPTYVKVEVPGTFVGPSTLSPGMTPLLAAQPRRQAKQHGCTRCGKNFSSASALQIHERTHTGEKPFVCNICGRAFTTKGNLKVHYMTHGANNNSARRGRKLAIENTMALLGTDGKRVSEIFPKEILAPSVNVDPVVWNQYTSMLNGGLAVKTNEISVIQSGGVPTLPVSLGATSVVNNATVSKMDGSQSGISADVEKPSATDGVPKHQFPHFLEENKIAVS
The E-score of `ACTGTGAT` is reported as 0.00095.
For `GGGTGAGA`, the E-score was -0.187.
`AACAGTCC` gave an E-score of -0.00045.
The E-score of `AAAAGTGT` is reported as 0.0233.
With `AGGACTCG` the E-score was -0.131.
With `GCGTTTCC` the E-score was -0.175.
The E-score of `CGTCGTTA` is reported as 0.0282.
For `CACACCTA`, the E-score was -0.013.
`CGTGACTA` gave an E-score of 0.155.
With `CCCAAGAG` the E-score was -0.172.
The E-score of `CCACATGG` is reported as -0.169.

Other studies, line by line
For `PhoQ, residues 284 288 289 292 302 303 SSCLAV`, the fold induction was 6.77 (PhoP, residues 12 14 15 18 19 LYFRQ (Escherichia coli, UniProt P23836); Sort-seq, refers to: YFP reporter; E. coli; PhoQ-PhoP variant library, with: 10 µM Mg2+; reference: high Mg2+ state, higher = stronger signaling).

For quick reference, copied from above (sample 1):
`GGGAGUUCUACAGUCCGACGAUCCACACGCCGAGACUCUGCCGUACCCCUCUGUGGUUCAUAUUACUACUUCUGUUCCAUGGUGUGCAGGUCUGCUUCUUAAUUCAGUGUUAUGAUAUCUUCCAGUUUUUGCUUGGAAUUCUCGGGUGCCAA` — result for “RBNS enrichment (R)”: 0.742.
Under “RBNS enrichment (R)”, `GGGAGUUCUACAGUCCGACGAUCAAAUUUCAGUAUUUUAGUAAUAUGCCAGCUGUUCUUAAUGUAUUUAUUAAAAUGUAUAACAAUGUGAUUUUUCAAUGGUAUUAGUUCAAAUUGACGUGGAUUCAUGCCACUGGAAUUCUCGGGUGCCAA` is recorded as 1.64.
Under “RBNS enrichment (R)”, `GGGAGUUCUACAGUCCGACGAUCUAUUUAACGAUUGCCUGACAGUCGAGUGUUUCCAAUGUGGUCGUCCAGUUUCUAUGGCCUUGCUGUGGACUUUCCCCUCUUUGUCGGUAACCUUUCGCCUAUGGCUUACAUGGAAUUCUCGGGUGCCAA` is recorded as 0.378.
